Measured values of several laboratories.
Protocols differ between the studies behind these lines. Several values in a cell are separate wells, animals, samples, runs or records.
Method: steady-state kinetics
B1: SCO6712 Y229F (Streptomyces coelicolor, UniProt Q9XAL8); chain AKGITARTAPAGGEVRHLKMYAEKLADGQMGYGFEKGKASVPGPLIEVNEGDTLHIEFTNTMDVRASLHVHGLDYEISSDGTAMNKSDVEPGGTRTYTWRTHKPGRRDDGTWRPGSAGYWHYHDHVVGTEHGTGGIRNGLYGPVIVRRKGDVLPDATHTIVFNDMTINNRKPHTGPDFEATVGDRVEIVMITHGEFYHTFHMHGHRWADNRTGILTGPDDPSRVIDNKITGPADSFGFQIIAGEGVGAGAWMYHCHVQSHSDMGMVGLFLVKKPDGTIPGYEPHEHGGATAKSGESGEPTGGAAAHEHEH
B2: aspC A106G/A17N/A218G/A278L/A281T/A8Q/D18E/F210I/F212I/F350Y/G15S/G249S/I187A/I279A/I29V/I33V/I341V/I5L/I68L/I71L/L46M/M321L/M380L/N285S/N30D/N64T/S129T/S135A/S273G/S351L/T100S/V125I/V136I/V375I/Y244C (Escherichia coli, UniProt P00509); chain MFENLTAQPADPILSLNELFRADERPGKVDLGVGVYKDETGKTPVMTSVKKAEQYLLENETTKTYLGLDGLPEFGRCTQELLFGKGSALINDKRARTAQSPGGTGGLRVAADFLAKNTSVKRVWISNPTWPNHKAIFNSAGLEVREYAYYDAENHTLDFDALINSLNEAQAGDVVLFHGCCHNPTGADPTLEQWQTLAQLSVEKGWLPLIDIAYQGFGRGLEEDAEGLRAFAAMHKELIVASSCSKNFSLYNERVGACTLVAADSETVDRAFGQMKALARTNYSSPPAHGASVVATILSNDALRAIWEQELTDMRQRIQRLRQLFVNTLQEKGANRDFSFVIKQNGMFSYLGLTKEQVLRLREEFGVYAVASGRINVAGLTPDNMAPLCEAIVAVL
B3: enzyme (Pediococcus pentosaceus, UniProt A0AB73HHR8); chain MKNYTDYFFDEQAFDLHDGGYVPLEVSDAPEKPLNVPPLLKPDKETATDVYYTVTAEAGETQLLPGAKTKTWGYNTSLLGQTIVYRRGQHTHVTLKNTLPELTTFHWHGANVSGPYVDGGCHAPVYPGESKHIDFTLEQPATTLWLHAHPCPSTAEQVWHGLAAMVIVKDDHEASLPLPRNYGVDDIPVILQDRRFHENNQWDYRADYDPDGVAGPTAMINGTINPYFDVTTQKVRLRFLDGANRREWRLHFSDDLPFTQIGGDGSLLPEPVKFTHLMLTCAERAEVIVDFGQYHEGDEVTLYTDDVPLLKFRIHAFKPDQTTLPDKLFDVKAPVVDPALPVRHVVMQGMDEGVAIDGKKFAMQRIDATQPIGKAQYWDVTNSNDAPGMVHPFHVHGTQFLVLSRNGHAPYPNEHGFKDTIGVNPGETVRLLVRFDLPGVYMYHCHIIEHEDGGMMAQIETFDPAKPKQEYKLMDMDTLMMALAKERGVKPSEIWMGGMQSYEKMGMKM
B4: NUDT3 (Homo sapiens, UniProt O95989); chain MMKLKSNQTRTYDGDGYKKRAACLCFRSESEEEVLLVSSSRHPDRWIVPGGGMEPEEEPSVAAVREVCEEAGVKGTLGRLVGIFENQERKHRTYVYVLIVTEVLEDWEDSVNIGRKREWFKIEDAIKVLQYHKPVQASYFETLRQGYSANNGTPVVATTYSVSAQSSMSGIR
B5: enzyme (Azotobacter vinelandii, UniProt C1DN94); chain MSESPLRLDRLRDFVSALGELLDRHPDEESVLREGRSLLGELVRHDDWLPEEFAQPDPERYQQYLLHADSRQRFSVVSFVWGPGQTTPVHDHRVWGLIGMLRGAEDAQSFELGAEGLRPIGDPVRLSPGQVEAVSPRIGDIHRVFNASPDQPSISIHVYGANIGAVRRAVYLPDGSEKPFISGYSNQFLPNIWDQSKESARP
B6: enzyme (Mus musculus, UniProt P60334); chain MERTELLKPRTLADLIRILHELFAGDEVNVEEVQAVLEAYESNPAEWALYAKFDQYRYTRNLVDQGNGKFNLMILCWGEGHGSSIHDHTDSHCFLKLLQGNLKETLFDWPDKKSNEMIKKSERTLRENQCAYINDSIGLHRVENVSHTEPAVSLHLYSPPFDTCHAFDQRTGHKNKVTMTFHSKFGIRTPFTTSGSLENN
B7: enzyme H459A (Methanosarcina mazei, UniProt Q8PVB1); chain MSEQRSVPLREHLLALKPCRHGGLIQETSETYGIPENEILDFSANFNPLGSPFDYPENGLNFEDIIKKSCGKLLEYPDNRYVEFREAAARFVGLGVTPQSIVPGNGSTEIVRLVVESVIEKGDKVLLPWPTFGEYEMQCRITGAEPVCPSQEEVNTLPDEVLEEAKILFICNPNNPTGKLRTREELKVLAERCREHKTLLYVDEAFIELSDPSQSVADLPAENNYVFVMRSLTKDFAIPGIRMGFGIAPPAMADILNTARLSWNLGAIANNTGIALLNIEGGIDSPYLKKAREMILKEGETLKAKIDRIRGFEAGEVNVNFILVDVSKFMLNSSELTARLAARGVLVRDCVSFHGLGKNYIRVAVRTEKENDRLIAAIGDVITEWGREQAKNELQHVIEKASEEGIGGRKTCEYYPCHFEGQNCTFCFCPFYPCENEKTGGKWIQSSRGGRVWSCVDCALVHKKEIAQKILDCLMHEGDTDELVKVAWKEVMEPIL
B8: enzyme (Arabidopsis thaliana, UniProt Q9C969); chain GSFGMLSRRTLGTDMPVMAQIRSLMAELTNPMSLAQGVVHWQPPQKALEKVKELVWDPIISSYGPDEGLPELRQALLKKLREENKLTNSQVMVTAGANQAFVNLVITLCDAGDSVVMFEPYYFNSYMAFQMTGVTNIIVGPGQSDTLYPDADWLERTLSESKPTPKVVTVVNPGNPSGTYVPEPLLKRIAQICKDAGCWLIVDNTYEYFMYDGLKHCCVEGDHIVNVFSFSKTYGMMGWRLGYIAYSERLDGFATELVKIQDNIPICAAIISQRLAVYALEEGSGWITERVKSLVKNRDIVKEALEPLGKENVKGGEGAIYLWAKLPEGHRDDFKVVRWLAHRHGVVVIPGCASGSPGYLRVSFGGLQEVEMRAAAARLRKGIEELLHHGMVE
B9: ST3GAL1 (Sus scrofa, UniProt Q02745); chain ELSENFKKLMKYPYRPCTCTRCIEEQRVSAWFDERFNRSMQPLLTAKNAHLEEDTYKWWLRLQREKQPNNLNDTIRELFQVVPGNVDPLLEKRLVSCRRCAVVGNSGNLKESYYGPQIDSHDFVLRMNKAPTEGFEADVGSKTTHHFVYPESFRELAQEVSMILVPFKTTDLEWVISATTTGRISHTYVPVPAKIKVKKEKILIYHPAFIKYVFDRWLQGHGRYPSTGILSVIFSLHICDEVDLYGFGADSKGNWHHYWENNPSAGAFRKTGVHDGDFESNVTTILASINKIRIFKGR
Chain of UniProt P11446 (whole entry, looked up): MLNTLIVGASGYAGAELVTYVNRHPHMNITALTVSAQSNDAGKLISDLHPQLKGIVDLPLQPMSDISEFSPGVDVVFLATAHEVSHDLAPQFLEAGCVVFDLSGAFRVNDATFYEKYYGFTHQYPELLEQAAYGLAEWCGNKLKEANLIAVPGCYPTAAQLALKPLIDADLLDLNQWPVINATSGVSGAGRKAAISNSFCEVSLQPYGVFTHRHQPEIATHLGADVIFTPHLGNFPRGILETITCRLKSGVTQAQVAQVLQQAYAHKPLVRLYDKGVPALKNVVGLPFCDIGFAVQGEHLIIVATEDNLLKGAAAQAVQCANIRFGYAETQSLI
Chain of UniProt P22310 (whole entry, looked up): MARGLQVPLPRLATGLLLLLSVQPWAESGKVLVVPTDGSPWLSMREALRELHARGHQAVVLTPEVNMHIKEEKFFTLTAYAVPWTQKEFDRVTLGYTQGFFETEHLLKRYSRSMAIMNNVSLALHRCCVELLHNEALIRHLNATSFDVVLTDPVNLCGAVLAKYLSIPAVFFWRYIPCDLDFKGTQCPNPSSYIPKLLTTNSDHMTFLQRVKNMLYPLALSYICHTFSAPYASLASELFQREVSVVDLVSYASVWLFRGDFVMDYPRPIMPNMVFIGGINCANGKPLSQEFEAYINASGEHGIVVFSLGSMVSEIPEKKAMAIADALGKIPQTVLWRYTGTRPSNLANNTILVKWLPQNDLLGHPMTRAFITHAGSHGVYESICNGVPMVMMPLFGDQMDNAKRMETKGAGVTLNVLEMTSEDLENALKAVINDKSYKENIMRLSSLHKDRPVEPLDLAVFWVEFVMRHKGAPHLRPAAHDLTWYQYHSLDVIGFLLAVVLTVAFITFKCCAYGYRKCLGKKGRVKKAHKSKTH
Chain of UniProt P09546 (whole entry, looked up): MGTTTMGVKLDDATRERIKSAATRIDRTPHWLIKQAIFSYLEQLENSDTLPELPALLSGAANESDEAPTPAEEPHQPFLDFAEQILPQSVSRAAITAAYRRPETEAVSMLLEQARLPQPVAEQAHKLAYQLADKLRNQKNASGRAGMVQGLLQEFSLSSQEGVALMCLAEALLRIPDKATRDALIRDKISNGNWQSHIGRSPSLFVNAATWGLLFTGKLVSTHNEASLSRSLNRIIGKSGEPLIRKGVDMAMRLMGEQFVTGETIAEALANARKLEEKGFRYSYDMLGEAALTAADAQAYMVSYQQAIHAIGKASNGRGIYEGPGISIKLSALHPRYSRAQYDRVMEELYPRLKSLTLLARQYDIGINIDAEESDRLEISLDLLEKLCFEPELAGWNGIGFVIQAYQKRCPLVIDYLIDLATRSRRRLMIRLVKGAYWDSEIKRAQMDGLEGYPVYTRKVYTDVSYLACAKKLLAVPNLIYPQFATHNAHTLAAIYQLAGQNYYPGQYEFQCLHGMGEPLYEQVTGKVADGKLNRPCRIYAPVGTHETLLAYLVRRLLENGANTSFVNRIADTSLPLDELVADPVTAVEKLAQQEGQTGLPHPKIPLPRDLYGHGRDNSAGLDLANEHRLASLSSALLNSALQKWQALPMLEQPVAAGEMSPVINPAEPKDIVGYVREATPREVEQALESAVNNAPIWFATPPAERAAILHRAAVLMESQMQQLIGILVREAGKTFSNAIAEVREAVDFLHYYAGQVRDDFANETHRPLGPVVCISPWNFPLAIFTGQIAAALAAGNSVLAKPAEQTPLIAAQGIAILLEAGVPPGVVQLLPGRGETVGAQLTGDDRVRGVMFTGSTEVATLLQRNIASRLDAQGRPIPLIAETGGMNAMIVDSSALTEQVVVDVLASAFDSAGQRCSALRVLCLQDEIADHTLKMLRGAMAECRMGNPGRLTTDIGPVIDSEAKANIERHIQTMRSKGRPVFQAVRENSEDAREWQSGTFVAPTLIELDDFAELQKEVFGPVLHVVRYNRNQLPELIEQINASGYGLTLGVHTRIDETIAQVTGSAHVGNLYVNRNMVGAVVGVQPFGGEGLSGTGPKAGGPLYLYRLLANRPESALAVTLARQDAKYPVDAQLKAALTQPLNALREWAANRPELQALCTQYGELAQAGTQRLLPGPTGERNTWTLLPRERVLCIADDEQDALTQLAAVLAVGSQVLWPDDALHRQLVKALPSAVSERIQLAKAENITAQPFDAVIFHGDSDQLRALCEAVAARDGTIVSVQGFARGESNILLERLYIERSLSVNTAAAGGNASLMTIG
Chain of UniProt P62620 (whole entry, looked up): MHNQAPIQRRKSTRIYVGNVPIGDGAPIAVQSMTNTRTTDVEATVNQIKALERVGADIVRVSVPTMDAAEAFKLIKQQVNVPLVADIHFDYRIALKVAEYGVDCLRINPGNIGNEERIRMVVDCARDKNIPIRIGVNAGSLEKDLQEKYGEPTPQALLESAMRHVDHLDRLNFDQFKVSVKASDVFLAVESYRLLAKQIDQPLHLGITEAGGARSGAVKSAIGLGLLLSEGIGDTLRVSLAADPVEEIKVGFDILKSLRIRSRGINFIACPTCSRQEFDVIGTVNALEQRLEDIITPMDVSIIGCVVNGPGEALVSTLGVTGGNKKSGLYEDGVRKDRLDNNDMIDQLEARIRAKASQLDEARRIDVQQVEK
Chain of UniProt Q5JHM5 (whole entry, looked up): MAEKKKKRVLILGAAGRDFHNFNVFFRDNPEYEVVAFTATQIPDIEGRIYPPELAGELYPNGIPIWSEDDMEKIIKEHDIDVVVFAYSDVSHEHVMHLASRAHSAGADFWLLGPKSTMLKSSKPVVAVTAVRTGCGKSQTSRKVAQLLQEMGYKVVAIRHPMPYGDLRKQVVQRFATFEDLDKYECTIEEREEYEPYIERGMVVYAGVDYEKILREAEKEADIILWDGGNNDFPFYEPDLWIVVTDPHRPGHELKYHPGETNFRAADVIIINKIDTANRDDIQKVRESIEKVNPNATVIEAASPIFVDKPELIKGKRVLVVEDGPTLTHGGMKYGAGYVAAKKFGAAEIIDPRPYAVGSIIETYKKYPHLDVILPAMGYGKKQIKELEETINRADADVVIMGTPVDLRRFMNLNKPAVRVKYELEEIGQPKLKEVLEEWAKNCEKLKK
Chain of UniProt P0A9A6 (whole entry, looked up): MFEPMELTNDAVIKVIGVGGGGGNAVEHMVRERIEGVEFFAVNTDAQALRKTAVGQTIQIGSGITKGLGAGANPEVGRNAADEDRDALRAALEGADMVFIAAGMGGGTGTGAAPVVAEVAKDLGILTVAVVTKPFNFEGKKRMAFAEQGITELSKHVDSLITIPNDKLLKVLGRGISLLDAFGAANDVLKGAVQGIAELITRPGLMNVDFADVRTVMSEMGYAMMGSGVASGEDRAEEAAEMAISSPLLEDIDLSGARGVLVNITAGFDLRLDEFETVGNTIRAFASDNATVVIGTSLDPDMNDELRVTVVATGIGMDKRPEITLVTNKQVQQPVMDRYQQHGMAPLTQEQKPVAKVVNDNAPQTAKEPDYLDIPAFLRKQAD
Chain of UniProt P49419 (whole entry, looked up): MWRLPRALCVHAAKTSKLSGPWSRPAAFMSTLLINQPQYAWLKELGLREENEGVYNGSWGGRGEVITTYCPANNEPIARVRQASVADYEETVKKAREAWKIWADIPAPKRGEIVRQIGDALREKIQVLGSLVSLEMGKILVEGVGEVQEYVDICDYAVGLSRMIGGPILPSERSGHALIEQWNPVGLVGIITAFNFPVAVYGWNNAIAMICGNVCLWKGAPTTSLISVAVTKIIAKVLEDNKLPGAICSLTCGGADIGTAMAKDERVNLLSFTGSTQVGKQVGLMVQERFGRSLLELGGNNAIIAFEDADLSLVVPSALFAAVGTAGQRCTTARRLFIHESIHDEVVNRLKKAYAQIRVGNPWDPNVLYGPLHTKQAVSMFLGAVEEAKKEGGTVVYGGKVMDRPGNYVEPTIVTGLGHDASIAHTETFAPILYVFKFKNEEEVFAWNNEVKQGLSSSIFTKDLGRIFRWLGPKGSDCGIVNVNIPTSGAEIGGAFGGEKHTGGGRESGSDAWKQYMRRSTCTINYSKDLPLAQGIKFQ
Chain of UniProt Q5ATH9 (whole entry, looked up): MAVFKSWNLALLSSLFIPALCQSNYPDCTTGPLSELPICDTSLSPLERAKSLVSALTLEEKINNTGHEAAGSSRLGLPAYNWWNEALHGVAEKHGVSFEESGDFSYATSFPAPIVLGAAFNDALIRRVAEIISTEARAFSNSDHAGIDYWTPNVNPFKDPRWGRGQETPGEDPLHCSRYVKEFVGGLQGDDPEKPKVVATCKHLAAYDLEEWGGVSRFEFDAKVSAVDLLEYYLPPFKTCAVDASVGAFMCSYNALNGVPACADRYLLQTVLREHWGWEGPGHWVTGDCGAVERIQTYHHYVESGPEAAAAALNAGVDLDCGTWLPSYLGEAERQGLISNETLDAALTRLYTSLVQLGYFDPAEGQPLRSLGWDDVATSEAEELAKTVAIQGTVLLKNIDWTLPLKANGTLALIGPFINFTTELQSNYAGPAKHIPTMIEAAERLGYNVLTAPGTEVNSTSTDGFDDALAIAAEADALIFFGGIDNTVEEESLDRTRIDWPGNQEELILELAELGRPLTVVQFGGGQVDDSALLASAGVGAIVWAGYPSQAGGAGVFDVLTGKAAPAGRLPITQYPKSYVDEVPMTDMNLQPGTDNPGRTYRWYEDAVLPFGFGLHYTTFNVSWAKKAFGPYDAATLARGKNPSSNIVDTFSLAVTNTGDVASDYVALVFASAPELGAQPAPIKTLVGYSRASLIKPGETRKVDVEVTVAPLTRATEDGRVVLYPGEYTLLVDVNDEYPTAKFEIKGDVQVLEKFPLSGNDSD

`bxlB (Aspergillus nidulans, UniProt Q5ATH9)` has a Km of 970 µM (O=[N+]([O-])c1ccc(O[C@@H]2OC[C@@H](O)[C@H](O)[C@H]2O)cc1; pH 5, 50 °C).
`enzyme (UniProt F0RRL2)` gave a Km of 53500 µM (OC[C@H]1O[C@@](CO)(O[C@H]2O[C@H](CO)[C@@H](O)[C@H](O)[C@H]2O)[C@@H](O)[C@@H]1O; pH 5.5, 37 °C, apparent).
The Km of `B1 (SCO6712 Y229F)` is reported as 2500 µM (CCn1c(=NN=c2sc3cc(S(=O)(=O)O)ccc3n2CC)sc2cc(S(=O)(=O)O)ccc21; pH 7, 37 °C, NaCl 150 mM, together with: O2 cosubstrate).
For `enzyme (Thermococcus kodakarensis, UniProt Q5JHM5)`, the Km was 1500 µM (O=P(O)(O)O; pH 7.5, 80 °C).
For `B2`, the Km was 1800 µM (N[C@@H](CC(=O)O)C(=O)O; pH 7.5, 25 °C, together with: PMP 20 µM).
`ispG (Escherichia coli, UniProt P62620)` has a Km of 119 µM (C[C@]1(CO)O[C@@H]1COP(=O)(O)OP(=O)(O)O).
`ftsZ (Escherichia coli, UniProt P0A9A6)` has a Km of 34 µM (Nc1nc2c(ncn2[C@@H]2O[C@H](COP(=O)(O)OP(=O)(O)OP(=O)(O)O)[C@@H](O)[C@H]2O)c(=O)[nH]1; pH 6.5, 30 °C, together with: MgCl2 5 mM).
With `enzyme N248Y/Q325R/R246H/R328K/S219F (Arabidopsis thaliana, UniProt O24495)` the Km was 240 µM (C[C@@H](O)C(=O)SC[C@H](NC(=O)CC[C@H](N)C(=O)O)C(=O)NCC(=O)O; pH 7.2, 25 °C).
With `UGT1A4 (Homo sapiens, UniProt P22310)` the Km was 12 µM (CN1CCN(CCCN2c3ccccc3Sc3ccc(C(F)(F)F)cc32)CC1; 37 °C, not purified).
`enzyme (Saccharina japonica, UniProt A0A097IUE3)` gave a Km of 80 µM (Nc1ncnc2c1ncn2[C@@H]1O[C@H](COP(=O)(O)OP(=O)(O)O)[C@@H](O)[C@H]1O; pH 6.5, 25 °C, together with: 16 mM PEP).
`putA (Escherichia coli, UniProt P09546)` has a Km of 110 µM (COC1=C(OC)C(=O)C(CC=C(C)C)=C(C)C1=O; pH 7.4, 20 °C, together with: proline 200 mM).
The Km of `B3 (enzyme)` is reported as 1540 µM (COc1cccc(OC)c1O; pH 3.7, 24 °C, together with: CuSO4 1 mM).
For `B4 (NUDT3)`, the Km was 24 µM (Nc1ncnc2c1ncn2[C@@H]1O[C@H](COP(=O)(O)OP(=O)(O)OP(=O)(O)OP(=O)(O)OP(=O)(O)OC[C@H]2O[C@@H](n3cnc4c(N)ncnc43)[C@H](O)[C@@H]2O)[C@@H](O)[C@H]1O; together with: Mg2+).
`B5 (enzyme)` has a Km of 13 µM (O=C(O)CCS; pH 8, 25 °C, together with: O2).
`ALDH7A1 (Homo sapiens, UniProt P49419)` has a Km of 129 µM (N[C@@H](CCCC=O)C(=O)O; pH 8, apparent, together with: NAD+ 2.5 mM).
For `B6 (enzyme)`, the Km was 5000 µM (N[C@@H](CS)C(=O)O; pH 7.5, 37 °C).
For `B7 (enzyme H459A)`, the Km was 90 µM (Nc1ncnc2c1ncn2[C@@H]1O[C@H](COP(=O)(O)OP(=O)(O)OP(=O)(O)O)[C@@H](O)[C@H]1O; pH 8.5, 25 °C, apparent, anoxic, together with: L-Thr 10 mM).
`B8 (enzyme)` has a Km of 60 µM and 65.1 µM and 31.5 µM (O=C(O)C(=O)Cc1ccc(O)cc1).
The Km of `argC (Escherichia coli, UniProt P11446)` is reported as 110 µM (N[C@@H](CCC=O)C(=O)O; pH 7.6, apparent, together with: 1 mM NADP+).
`B9 (ST3GAL1)` has a Km of 85.9 µM (CC(=O)N[C@H]1[C@H]([C@H](O)[C@H](O)CO)O[C@](OP(=O)(O)OC[C@H]2O[C@@H](n3ccc(N)nc3=O)[C@H](O)[C@@H]2O)(C(=O)O)C[C@@H]1O).
